Results from different studies.
Protocols differ between the studies behind these lines. ± marks the error that the study gave.

`O=C(c1ccc(F)cc1)C1CCN(C2Cc3c(cccc3OCC[18F])CC2O)CC1` (single isomer, unassigned; (-)) gave a tissue uptake of 0.403 ± 0.095 %ID/g (Sprague-Dawley rat, male, bone; intravenous, dose not given, 60 min).
With `N=C(N)NCc1ccc(C(=O)NCCCC[C@H](NC(=O)CCCCCCC(=O)NCCCC[C@H](NC(=O)N[C@@H](CCC(=O)O)C(=O)O)C(=O)O)C(=O)O)cc1[211At]` the tissue uptake was 0.4 ± 0.04 %ID/g (SCID mouse, PC-3 xenografts, bone; 2 h).
For `COc1cc2ncnc(Oc3cccc(N[11C](=O)Nc4cc(C(C)(C)C(F)(F)F)on4)c3)c2cc1OC`, the tissue uptake was 2.03 ± 0.11 %ID/g (Balb/c nude mouse, female, A375 melanoma xenograft, muscle; 6.6 MBq, 30 min).
For `CN[C@](C)(C[18F])C(=O)O`, the tissue uptake was 5.6 ± 1.5 %ID/g (SCID mouse A549 xenograft, spleen; 60 min, post injection).
For `C=Cc1cc(O)cc2nc(-c3ccc(O)c([76Br])c3)oc12`, the tissue uptake was 0.07 ± 0.02 %ID/g (female C57BL/6 mouse, muscle; 1 h, high dose).
`COC(=O)C1=CO[C@@H](OC(C)=O)[C@@H]2C(Cn3cc(C4(O)CCCC4)nn3)=CC[C@H]12` has a viability of 60.2 ± 1.2% (SK-N-SH; neuroprotection, MTT; 0.3 µM, 24 h, together with: 250 µM H2O2).
For `CN(C)c1ccc(C(=O)NCCCCN2CCN(c3ccccc3O[11CH3])CC2)cc1`, the tissue uptake was 0.688 %ID/g (male Sprague Dawley rat, lung; iv, 30 min; reference: untreated).
With `CCN(CC)c1ccc2c(-c3ccccc3C(=O)OCCOCC[18F])c3ccc(=[N+](CC)CC)cc-3oc2c1` the tissue uptake was 3.53 ± 0.57 %ID/g (rat, spleen; 60 min).
With `C[C@H](NC(=O)[C@H](CCC(N)=O)NC(=O)[C@H](CCCCN)NC(=O)[C@H](C)NC(=O)[C@@H]1CCCN1C(=O)[C@H](C)NC(=O)[C@H](CCCCN)NC(=O)[C@H](CCC(N)=O)NC(=O)[C@H](C)NC(=O)[C@H](CCCCN)NC(=O)[C@H](CCC(N)=O)NC(=O)[C@@H]1CCCN1C(=O)[C@H](CCC(N)=O)NC(=O)[C@H](CCCCN)NC(=O)[C@H](C)NC(=O)[C@H](CCC(N)=O)NC(=O)[C@H](CCCCN)NC(=O)[C@H](C)NC(=O)[C@@H]1CCCN1C(=O)[C@H](C)NC(=O)[C@H](CCCCN)NC(=O)[C@H](CCC(N)=O)NC(=O)[C@H](C)NC(=O)[C@H](CCCCN)NC(=O)[C@H](CO)NC(=O)[C@H](Cc1ccc(O)cc1)NC(=O)CNC(=O)CNC(=O)CN)C(=O)N[C@@H](CCCCN)C(=O)N[C@@H](CCC(N)=O)C(=O)O` the Kd was 25 nM (binding, SPR Langmuir fit; rVλ6Wil fibrils; pH 7.4).
For `CCCCCCCCCCOCc1cn(CC2=CC[C@@H]3C(C(=O)OC)=CO[C@@H](OC(C)=O)[C@H]23)nn1`, the viability was 58.2 ± 0.3% (SK-N-SH; neuroprotection, MTT; 0.15 µM, 24 h, together with: 250 µM H2O2).
`N=C(N)NCc1ccc(C(=O)NCCCC[C@H](NC(=O)N[C@@H](CCC(=O)O)C(=O)O)C(=O)O)cc1[211At]` has a tissue uptake of 0.77 ± 0.25 %ID/g (SCID mouse, PC-3 xenografts, thyroid; 2 h).
The tissue uptake of `COc1ccc(C)cc1NC(=O)OC1CC2CCCC(C1)N2Cc1ccc(CC[18F])cc1` (centres unmarked) is reported as 28.5 ± 1.82 %ID/g (BALB/c mice, EMT6 tumour, liver; 30 min).
`N=C(N)NCCC[C@@H]1NC(=O)[C@H](CCCCNC(=O)CNC(=O)CNC(=O)CNC(=O)CC[C@H](NC(=O)CCOCCOCCOCCOCCNC(=O)CC[C@H](NC(=O)CN2CCN(CC(=O)O)CCN(CC(=O)O)CCN(CC(=O)O)CC2)C(=O)NCCOCCOCCOCCOCCC(=O)N[C@@H](CCC(=O)NCC(=O)NCC(=O)NCC(=O)NCCCC[C@@H]2NC(=O)[C@@H](Cc3ccccc3)NC(=O)[C@H](CC(=O)O)NC(=O)CNC(=O)[C@H](CCCNC(=N)N)NC2=O)C(=O)NCC(=O)NCC(=O)NCC(=O)NCCCC[C@@H]2NC(=O)[C@@H](Cc3ccccc3)NC(=O)[C@H](CC(=O)O)NC(=O)CNC(=O)[C@H](CCCNC(=N)N)NC2=O)C(=O)NCC(=O)NCC(=O)NCC(=O)NCCCC[C@@H]2NC(=O)[C@@H](Cc3ccccc3)NC(=O)[C@H](CC(=O)O)NC(=O)CNC(=O)[C@H](CCCNC(=N)N)NC2=O)NC(=O)[C@@H](Cc2ccccc2)NC(=O)[C@H](CC(=O)O)NC(=O)CNC1=O` [indium-111 labelled] gave a tissue uptake of 3.62 ± 0.85 %ID/g (female athymic nude mice, liver; intravenous, 3 µCi, 0.5 h, U-87 MG glioma xenograft).
For `O=C(O)CCC(NP(=O)(O)OCCC[C@@H](NC(=O)CCC(NC(=O)CCCCCNC(=O)c1ccc([18F])cc1)C(=O)O)C(=O)O)C(=O)O` (some centres unmarked), the tracer uptake was 3.16 %ID/g (CWR22Rv1 tumour model; host not given, tumour; intravenous, 1 h, tumour-bearing).
The tissue uptake of `CCNc1cc2[o+]c3cc(NCC)c(C)cc3c(-c3ccccc3C(=O)OCCOCC[18F])c2cc1C` is reported as 3.83 ± 3.5 %ID/g (rat, gut; 15 min).
With `N=C(N)NCCC[C@@H]1NC(=O)[C@H](CCCCNC(=O)CCOCCOCCOCCOCCNC(=O)CN2CCN(CC(=O)O)CCN(CC(=O)O)CCN(CC(=O)O)CC2)NC(=O)[C@@H](Cc2ccccc2)NC(=O)[C@H](CC(=O)O)NC(=O)CNC1=O` [indium-111 labelled] the tissue uptake was 0.63 ± 0.11 %ID/g (athymic nude mice, female, U-87 MG glioma xenograft, spleen; intravenous, 3 µCi, 24 h).
For `N=C(N)NCc1ccc(C(=O)NCCCC[C@H](NC(=O)N[C@@H](CCC(=O)O)C(=O)O)C(=O)O)cc1[131I]`, the tissue uptake was 0.06 ± 0.02 %ID/g (SCID mouse, PC-3 xenografts, brain; 2 h).
With `O=C(O)CC[C@H](NC(=O)O[C@@H](CCCCNC(=O)c1ccc([18F])cc1)C(=O)O)C(=O)O` the tissue uptake was 0.33 ± 0.05 %ID/g (mouse, PC-3 PIP/flu xenografts, lung; 90 min).
`N=C(N)NCc1ccc(C(=O)NCCCC[C@H](NC(=O)CCCCCCC(=O)NCCCC[C@H](NC(=O)N[C@@H](CCC(=O)O)C(=O)O)C(=O)O)C(=O)O)cc1[131I]` gave a tissue uptake of 0.18 ± 0.07 %ID/g (SCID mouse, PC-3 xenografts, blood; 2 h).
With `CCN(CC)c1ccc2c(-c3ccccc3C(=O)OCCC[18F])c3ccc(=[N+](CC)CC)cc-3oc2c1` the tissue uptake was 0.55 ± 0.11 %ID/g (rat, liver; 60 min).
